Measurements of several laboratories.
Compare with care: the assays were run in different laboratories. Several values in a cell are separate wells, animals, samples, runs or records. ± marks the error that the study gave.
CASP1: Caspase-1 (CASP1, Homo sapiens, UniProt P29466)
UniProt P29466, sequence (whole entry, looked up): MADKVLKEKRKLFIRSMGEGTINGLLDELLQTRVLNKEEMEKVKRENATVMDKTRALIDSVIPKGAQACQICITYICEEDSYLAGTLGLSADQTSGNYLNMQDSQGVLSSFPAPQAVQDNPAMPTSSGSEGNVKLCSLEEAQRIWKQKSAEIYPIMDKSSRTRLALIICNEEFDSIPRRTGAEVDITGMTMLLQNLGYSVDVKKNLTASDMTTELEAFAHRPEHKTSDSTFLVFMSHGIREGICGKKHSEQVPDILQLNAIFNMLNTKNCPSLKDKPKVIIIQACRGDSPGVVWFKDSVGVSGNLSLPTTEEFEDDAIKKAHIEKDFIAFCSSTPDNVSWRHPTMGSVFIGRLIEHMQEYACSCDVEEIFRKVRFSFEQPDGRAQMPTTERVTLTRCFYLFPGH
Rhomboid protease AarA: Rhomboid protease AarA (Providencia stuartii, UniProt P46116)
UniProt P46116, sequence (whole entry, looked up): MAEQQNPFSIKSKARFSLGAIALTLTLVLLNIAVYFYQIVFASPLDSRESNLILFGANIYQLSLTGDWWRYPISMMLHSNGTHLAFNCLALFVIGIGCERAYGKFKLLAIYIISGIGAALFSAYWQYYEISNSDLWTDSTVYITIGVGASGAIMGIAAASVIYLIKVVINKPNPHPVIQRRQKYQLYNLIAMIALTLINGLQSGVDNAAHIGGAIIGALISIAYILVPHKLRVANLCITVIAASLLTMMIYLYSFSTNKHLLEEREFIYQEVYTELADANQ
T1: ssRNA, hairpin with 1x1 G/G internal loops (Homo sapiens); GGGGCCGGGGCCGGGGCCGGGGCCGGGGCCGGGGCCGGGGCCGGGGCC
UniProt Q92633, sequence (whole entry, unmodified, looked up): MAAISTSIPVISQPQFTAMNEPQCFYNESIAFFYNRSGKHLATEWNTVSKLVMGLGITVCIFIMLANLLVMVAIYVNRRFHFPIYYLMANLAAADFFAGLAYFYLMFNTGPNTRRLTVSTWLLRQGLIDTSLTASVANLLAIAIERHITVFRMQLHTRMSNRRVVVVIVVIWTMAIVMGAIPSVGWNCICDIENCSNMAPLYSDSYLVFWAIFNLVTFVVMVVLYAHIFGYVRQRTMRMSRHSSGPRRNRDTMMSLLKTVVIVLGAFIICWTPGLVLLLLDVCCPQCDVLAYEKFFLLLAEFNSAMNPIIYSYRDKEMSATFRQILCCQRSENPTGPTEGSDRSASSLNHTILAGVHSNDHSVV
UniProt Q9UPN9, sequence (whole entry, looked up): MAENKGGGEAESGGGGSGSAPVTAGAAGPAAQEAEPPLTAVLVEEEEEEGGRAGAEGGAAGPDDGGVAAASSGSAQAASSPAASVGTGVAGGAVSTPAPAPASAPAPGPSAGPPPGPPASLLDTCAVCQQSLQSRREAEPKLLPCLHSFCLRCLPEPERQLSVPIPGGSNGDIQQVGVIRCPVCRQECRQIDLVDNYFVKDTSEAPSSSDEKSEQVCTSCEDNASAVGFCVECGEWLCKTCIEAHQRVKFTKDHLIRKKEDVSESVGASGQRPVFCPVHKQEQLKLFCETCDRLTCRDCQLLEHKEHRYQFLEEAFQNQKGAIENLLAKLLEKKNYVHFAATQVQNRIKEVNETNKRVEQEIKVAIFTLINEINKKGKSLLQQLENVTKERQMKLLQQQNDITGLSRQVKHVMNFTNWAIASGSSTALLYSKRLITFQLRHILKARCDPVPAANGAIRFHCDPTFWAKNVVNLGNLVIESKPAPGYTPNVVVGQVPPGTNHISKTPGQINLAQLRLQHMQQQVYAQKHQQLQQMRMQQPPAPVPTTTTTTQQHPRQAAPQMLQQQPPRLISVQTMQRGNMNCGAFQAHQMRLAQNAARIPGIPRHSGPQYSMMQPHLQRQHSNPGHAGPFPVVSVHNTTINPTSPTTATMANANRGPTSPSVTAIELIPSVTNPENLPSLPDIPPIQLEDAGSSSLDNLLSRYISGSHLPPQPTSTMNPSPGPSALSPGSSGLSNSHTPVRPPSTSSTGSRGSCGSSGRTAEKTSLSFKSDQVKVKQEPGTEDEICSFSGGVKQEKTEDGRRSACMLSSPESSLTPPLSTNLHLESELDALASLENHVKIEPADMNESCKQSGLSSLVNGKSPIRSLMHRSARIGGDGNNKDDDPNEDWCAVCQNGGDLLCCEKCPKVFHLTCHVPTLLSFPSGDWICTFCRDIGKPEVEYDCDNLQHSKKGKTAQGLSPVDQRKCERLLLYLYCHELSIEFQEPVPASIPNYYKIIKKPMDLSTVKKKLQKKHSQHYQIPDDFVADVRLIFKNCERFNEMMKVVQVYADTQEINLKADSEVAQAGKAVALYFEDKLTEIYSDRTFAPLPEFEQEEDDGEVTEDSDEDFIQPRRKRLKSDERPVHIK
UniProt P28887, sequence (whole entry, looked up): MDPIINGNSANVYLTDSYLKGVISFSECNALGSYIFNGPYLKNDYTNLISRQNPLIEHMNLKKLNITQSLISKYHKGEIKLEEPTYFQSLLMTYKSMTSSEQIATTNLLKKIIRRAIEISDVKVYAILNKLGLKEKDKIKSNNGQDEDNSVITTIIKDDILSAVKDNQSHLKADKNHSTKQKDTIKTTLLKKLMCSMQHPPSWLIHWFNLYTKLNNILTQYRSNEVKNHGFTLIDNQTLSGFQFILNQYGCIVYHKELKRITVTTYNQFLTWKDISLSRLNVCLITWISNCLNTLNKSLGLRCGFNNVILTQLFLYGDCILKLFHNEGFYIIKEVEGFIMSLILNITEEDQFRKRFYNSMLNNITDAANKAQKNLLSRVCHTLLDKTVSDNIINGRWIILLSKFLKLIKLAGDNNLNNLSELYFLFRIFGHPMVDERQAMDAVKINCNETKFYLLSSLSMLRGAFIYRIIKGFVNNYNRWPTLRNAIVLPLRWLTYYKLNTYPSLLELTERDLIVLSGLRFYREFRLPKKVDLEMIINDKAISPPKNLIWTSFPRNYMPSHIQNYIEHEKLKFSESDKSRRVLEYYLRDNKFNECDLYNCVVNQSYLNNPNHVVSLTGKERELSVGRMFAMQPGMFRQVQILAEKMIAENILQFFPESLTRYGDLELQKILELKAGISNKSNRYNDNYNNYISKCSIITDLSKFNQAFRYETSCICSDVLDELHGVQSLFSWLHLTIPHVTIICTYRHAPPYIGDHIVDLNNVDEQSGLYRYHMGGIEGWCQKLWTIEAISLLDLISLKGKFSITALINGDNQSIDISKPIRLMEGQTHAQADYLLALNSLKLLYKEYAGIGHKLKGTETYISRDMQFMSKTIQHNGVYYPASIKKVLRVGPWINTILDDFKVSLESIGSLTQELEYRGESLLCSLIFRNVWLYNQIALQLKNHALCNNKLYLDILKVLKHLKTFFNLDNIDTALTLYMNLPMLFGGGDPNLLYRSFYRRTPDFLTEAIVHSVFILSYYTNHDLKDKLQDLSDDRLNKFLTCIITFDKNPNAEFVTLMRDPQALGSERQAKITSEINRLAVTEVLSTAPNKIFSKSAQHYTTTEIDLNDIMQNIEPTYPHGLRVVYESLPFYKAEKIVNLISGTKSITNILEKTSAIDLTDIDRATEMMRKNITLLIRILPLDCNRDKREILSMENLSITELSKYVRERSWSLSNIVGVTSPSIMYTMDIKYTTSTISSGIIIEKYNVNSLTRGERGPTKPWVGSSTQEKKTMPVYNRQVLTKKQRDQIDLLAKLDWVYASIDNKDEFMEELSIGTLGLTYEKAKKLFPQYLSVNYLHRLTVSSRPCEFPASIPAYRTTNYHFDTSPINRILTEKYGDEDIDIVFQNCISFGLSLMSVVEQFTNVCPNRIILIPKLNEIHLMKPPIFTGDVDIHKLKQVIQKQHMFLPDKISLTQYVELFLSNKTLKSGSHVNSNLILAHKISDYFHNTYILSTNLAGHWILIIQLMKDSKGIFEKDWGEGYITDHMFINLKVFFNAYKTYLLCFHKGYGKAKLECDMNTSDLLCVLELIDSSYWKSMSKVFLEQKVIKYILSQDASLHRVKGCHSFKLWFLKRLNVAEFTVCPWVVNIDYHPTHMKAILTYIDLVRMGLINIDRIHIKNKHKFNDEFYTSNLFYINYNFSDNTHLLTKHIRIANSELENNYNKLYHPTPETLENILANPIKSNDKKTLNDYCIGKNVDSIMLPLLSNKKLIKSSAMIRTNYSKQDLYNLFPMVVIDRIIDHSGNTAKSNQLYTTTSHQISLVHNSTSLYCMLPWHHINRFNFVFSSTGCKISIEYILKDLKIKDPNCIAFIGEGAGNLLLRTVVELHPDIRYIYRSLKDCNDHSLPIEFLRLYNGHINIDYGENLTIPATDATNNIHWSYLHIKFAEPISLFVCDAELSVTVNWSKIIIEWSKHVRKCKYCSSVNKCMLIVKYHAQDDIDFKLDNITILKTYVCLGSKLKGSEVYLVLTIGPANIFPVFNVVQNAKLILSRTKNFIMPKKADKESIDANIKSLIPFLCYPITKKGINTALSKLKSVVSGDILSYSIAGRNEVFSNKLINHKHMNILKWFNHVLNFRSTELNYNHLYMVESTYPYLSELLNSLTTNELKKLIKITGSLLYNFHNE
UniProt Q13148, sequence (whole entry, looked up): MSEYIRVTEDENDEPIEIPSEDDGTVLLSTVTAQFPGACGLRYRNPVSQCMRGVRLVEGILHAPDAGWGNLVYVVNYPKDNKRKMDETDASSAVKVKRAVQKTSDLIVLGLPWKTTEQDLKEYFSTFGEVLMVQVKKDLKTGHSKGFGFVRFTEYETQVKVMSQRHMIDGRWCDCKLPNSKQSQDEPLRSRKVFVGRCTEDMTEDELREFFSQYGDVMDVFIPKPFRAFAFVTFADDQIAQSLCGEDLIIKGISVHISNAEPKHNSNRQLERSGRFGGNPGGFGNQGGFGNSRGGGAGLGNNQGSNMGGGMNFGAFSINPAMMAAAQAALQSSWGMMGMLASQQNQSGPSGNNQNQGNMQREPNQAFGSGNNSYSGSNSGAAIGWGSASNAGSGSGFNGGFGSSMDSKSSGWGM
UniProt O95881, sequence (whole entry, looked up): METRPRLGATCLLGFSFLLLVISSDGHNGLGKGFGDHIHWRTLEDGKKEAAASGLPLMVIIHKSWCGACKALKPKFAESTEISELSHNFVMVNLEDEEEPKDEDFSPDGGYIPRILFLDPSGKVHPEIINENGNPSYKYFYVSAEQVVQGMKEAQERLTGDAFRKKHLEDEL

| SMILES | target | assay | test system | setting | scale | quantity | value |
| --- | --- | --- | --- | --- | --- | --- | --- |
| O=C(CN1CCCN(C(=O)CN2CCCN(Cc3cccc4cnccc34)CC2)CC1)Nc1cccc(-c2nc3ccccc3[nH]2)c1 | T1, ssRNA, hairpin with 1x1 G/G internal loops (Homo sapiens) | BLI | – | read off a plot | – | Kd | > 40 µM |
| CC[C@H](C)[C@H](NC(=O)[C@H](CCCC(=O)O)NC(=O)[C@H](CC(=O)O)NC(C)=O)C(=O)N[C@@H](CC(=O)O)C(=O)COC(=O)c1c(C)cccc1C | CASP1 | enzyme activity, inhibitor | – | – | – | kinact/KI | 36400 M⁻¹ s⁻¹ |
| CC(C=CC=C(C)C=CC1=C(C)CCCC1(C)C)=CC=O | Rhodopsin (RHO, Homo sapiens, UniProt P08100, E181K) | immunostaining, refers to: opsin | COS-7 transfected | 5.00 µM, unit not given | relative to: surface over total stained cells | plasma membrane localization | 0.54 |
| Cc1cccc(C(=O)NC(NC(=S)Nc2cccc(C(=O)O)c2)C(Cl)(Cl)Cl)c1 (centres unmarked) | Heat shock protein HSP 90-alpha, N-terminal domain (HSP90AA1, Homo sapiens, UniProt P07900) | SPR, two-state model | N-terminal domain | – | – | kon | 1190 ± 721 M⁻¹ s⁻¹ |
| CN(Cc1ccc(/C=C/C(=O)NO)cc1)CC12CC3CC(CC(C3)C1)C2 | human H1 receptor | antagonist radioligand binding | – | 0.05 µM | – | inhibition | -7% |
| N=C(N)NCCC[C@H](NC(=O)[C@H](Cc1ccc(O)cc1)NC(=O)CNC(=O)[C@H](Cc1c[nH]cn1)NC(=O)[C@H](Cc1c[nH]cn1)NC(=O)[C@H](CCCNC(=N)N)NC(=O)[C@H](CCCCN)NC(=O)[C@H](CCC(=O)O)NC(=O)[C@H](Cc1c[nH]cn1)NC(=O)[C@H](COP(=O)(O)O)NC(=O)[C@@H](N)CC(=O)O)C(=O)N[C@@H](CCCNC(=N)N)C(=O)N[C@@H](CCCCN)C(=O)N[C@@H](Cc1ccccc1)C(=O)N[C@@H](Cc1c[nH]cn1)C(=O)N[C@@H](CCC(=O)O)C(=O)N[C@@H](CCCCN)C(=O)N[C@@H](Cc1c[nH]cn1)C(=O)N[C@@H](Cc1c[nH]cn1)C(=O)O | Sigma intracellular receptor 2 (TMEM97, Homo sapiens, UniProt Q5BJF2) | SPR | – | concentration not given, 25 °C | relative to: Rmax | binding response | 12% |
| CCC[C@H](NC(=O)[C@H](CC(=O)O)NC(C)=O)C(=O)N1[C@H](C(=O)N[C@@H](CC(=O)O)C(=O)COC(=O)c2c(C)cccc2C)C[C@@H]2CCCC[C@@H]21 | CASP1 | enzyme activity, inhibitor | – | – | – | kinact/KI | 22400 M⁻¹ s⁻¹ |
| CCCCCC=CC=C1C(=O)C=CC1CC=CCCCC(=O)O (centres unmarked) | WW domain-containing adapter protein with coiled-coil (WAC, Homo sapiens, UniProt Q9BTA9) | competitive isoTOP-ABPP | Ramos soluble proteome | 100 µM, together with: iodoacetamide probe | relative to: DMSO over compound-treated, higher = stronger cysteine blockade | isoTOP-ABPP competition ratio | 1.8 |
| Cc1ccc(C[C@H](NC(=O)CN2CCCc3cc4cc(C(=O)NCCNC(=O)CCCC[C@@H]5SC[C@@H]6NC(=O)N[C@@H]65)c(=O)oc4cc32)C(=O)NC/C=C/S(=O)(=O)c2ccccc2)cc1 | Procathepsin L (CTSL, Homo sapiens, UniProt P07711) | inhibitor | – | together with: Z-Phe-Arg-pNA | – | kinact/Ki | 13600 M⁻¹ s⁻¹ |
| O=C(CCCCCCc1ccccc1)c1ncc(-c2ccc(CBr)cn2)o1 | Fatty-acid amide hydrolase 1 (Faah, Mus musculus, UniProt O08914) | competitive ABPP | mouse brain membrane proteome | – | relative to: 6 h over 20 min preincubation | potency increase | > 10 fold |
| OC1CCCCC1N1CCC(c2ccc(Br)cc2)CC1 (racemic) | Vesicular acetylcholine transporter (Rattus norvegicus, UniProt Q62666) | – | – | – | relative to: Ki sigma1 over Ki VAChT | selectivity ratio | 0.018 |
| CCCCCCOc1ccc(C(=O)OCCN2CC=CCC2)cc1 | Muscarinic acetylcholine receptor M4 (CHRM4, Homo sapiens, UniProt P08173) | – | membranes | 100 µM, 15 h, no carbachol | relative to: control | basal binding | 0.75 ± 0.04 fold |
| O=C1CC(c2ccccc2)N1C(=O)NCc1ccccc1 (centres unmarked) | Rhomboid protease AarA | enzyme activity, inhibitor, fluorogenic peptide substrate | – | – | – | IC50 | inactive |
| CC[C@H](C)[C@H](NC(=O)CNC(=O)CNC(=O)CNC(=O)CNC(=O)CNC(=O)[C@@H](NC(=O)[C@H](CCSC)NC(=O)[C@H](CC(C)C)NC(=O)[C@H](CC(N)=O)NC(=O)[C@H](CC(C)C)NC(=O)[C@@H](NC(=O)[C@H](COP(=O)(O)O)NC(=O)[C@H](CCC(N)=O)NC(=O)[C@H](CCCNC(=N)N)NC(=O)[C@H](CCCNC(=N)N)NC(=O)[C@H](CCCNC(=N)N)NC(=O)[C@H](C)NC(=O)[C@H](CCC(N)=O)NC(C)=O)C(C)C)[C@@H](C)O)C(=O)N[C@@H](Cc1ccc(O)cc1)C(=O)N[C@@H](CO)C(=O)N[C@@H](CCCNC(=N)N)C(=O)N[C@@H](CCCNC(=N)N)C(=O)N[C@@H](CC(C)C)C(=O)N[C@@H](COP(=O)(O)O)C(=O)N[C@@H](CCC(N)=O)C(=O)N[C@@H](CCC(=O)O)C(=O)N[C@H](C(=O)NCC(=O)N[C@@H](CC(C)C)C(=O)N[C@@H](CCC(=O)O)C(N)=O)[C@@H](C)O | 14-3-3 protein beta/alpha (Homo sapiens, UniProt P31946) | binding, ITC | – | 37 °C, together with: CFTR R-domain peptide | – | TΔS | -3.2 kcal/mol |
| CCN(CC)C(CO)c1cccc2c(C)c(C)oc12 (centres unmarked) | Lysophosphatidic acid receptor 1 (LPAR1, Homo sapiens, UniProt Q92633, W210A) | G-protein dissociation, agonist, NanoBiT | HEK-293T | 100 pM, W210A mutant | relative to: baseline luminescence | fold change | 1.1 and 1.03 and 1.02 and 1 |
| CC[C@H](C)[C@H](NC(=O)[C@H](CCC(N)=O)NC(=O)[C@H](CO)NC(=O)[C@H](NC(=O)[C@@H](NC(=O)CN)C(C)C)[C@@H](C)CC)C(=O)N[C@@H](CCCNC(=N)N)C(=O)N1CCC[C@H]1C(N)=O | Platelet glycoprotein 4 (CD36, Homo sapiens, UniProt P16671) | binding, BLI | – | pH 8.4 | – | koff | 0.032 s⁻¹ |
| CC(=O)N[C@@H](Cc1c[nH]c2ccccc12)C(=O)N[C@@H](CCCNC(=N)N)C(=O)N[C@@H](CO)C(=O)N[C@@H](CC(=O)O)C(=O)COC(=O)c1c(C)cccc1C | CASP1 | inhibitor | – | recombinant enzyme | – | kobs/[I] | 2.34e+06 M⁻¹ s⁻¹ |
| O=C1c2sc(-c3ccc(N4CCC(F)C4)nc3F)nc2CCN1c1cccnc1 (centres unmarked) | TAR DNA-binding protein 43, aggregated (TARDBP, Homo sapiens, UniProt Q13148) | saturation autoradiography | human, FTLD-TDP type A brain sections | 0.45 nM | – | specific binding | 9.88 nM |
| C[Si](C)(C)C[C@H](CN)CC(=O)O | Delta-type opioid receptor (OPRD1, Homo sapiens, UniProt P41143) | ligand displacement, radioligand | – | 250 µM | – | inhibition | -14% |
| Cn1cc(-c2cc(N3CCCCS3(=O)=O)ccc2N[C@H]2CC[C@H](C)CC2)c2cc[nH]c2c1=O (stereo in doubt) | SWI/SNF-related matrix-associated actin-dependent regulator of chromatin subfamily A member 2 (SMARCA2, Homo sapiens, UniProt P51531) | binding | – | 1 µM | – | remaining binding | 100% |
| CC(C)(O)c1ccn2c(-c3ccc(F)c(-c4ccc(F)cc4C#N)c3)cnc2c1F | Gamma-aminobutyric acid receptor subunit alpha-1 (GABRA1, Homo sapiens, UniProt P14867, G251D) | total protein level, Western blot | HEK-293T stably expressing GABAA receptors | 5 µM, single dose, together with: hispidulin 10 µM | – | time to peak increase | 12 to 24 h |
| Nc1ccn([C@@H]2O[C@H](COP(=O)(O)OP(=O)(O)OP(=O)(O)O)[C@@H](O)[C@@H]2O)c(=O)n1 | RNA-directed RNA polymerase L (Human respiratory syncytial virus A, UniProt P28887) | nucleotide incorporation, substrate | – | – | – | Vmax | 0.8 fraction per time |
| Cc1ccc(S(=O)(=O)NC(CCO)c2ccccc2)cc1 (centres unmarked) | Rhomboid protease AarA | enzyme activity, inhibitor, fluorogenic peptide substrate | – | – | – | IC50 | inactive |
| C#CCCCCNC(=O)c1ccc(N(C(=O)C=C)c2ccc(Br)cc2)cc1 | Thioredoxin domain-containing protein 12 (TXNDC12, Homo sapiens, UniProt O95881) | mass spectrometry profiling | H460 cell lysate | 100 µM over 10 µM, UniProt O95881 | relative to: high over low concentration | reactivity ratio | 4.39 |
| CC1C(=O)NC1c1ccccc1 (centres unmarked) | Rhomboid protease AarA | enzyme activity, inhibitor, fluorogenic peptide substrate | – | – | – | IC50 | inactive |
| N#CN1CC[C@H](C(=O)Nc2nc3c(s2)CN(C(=O)Cn2cc(COCCOCCOCCOCCNC(=O)CCCC[C@@H]4SC[C@@H]5NC(=O)N[C@@H]54)nn2)CC3)C1 | E3 ubiquitin-protein ligase TRIM33 (Homo sapiens, UniProt Q9UPN9) | probe binding, affinity probe, neutravidin pull-down LC-MS/MS | HEK293T, cell lysate | 5 µM, 1 h, mean of three replicates, unit not given | higher = more pulled down | iBAQ abundance | 478000 |
